Measurements of several laboratories.
Parts stem from different laboratories: compare values within a part only.

Study 1
Target: Histone acetyltransferase KAT6A, both winged helices, GST fusion (KAT6A, Homo sapiens, UniProt Q92794, residues 1-181)
Method: protein binding microarray
Molecule type: double-stranded DNA, one strand shown
Medium: in vitro
Concentration: not given
Setting: 8-mer, flanks averaged, mean of 2 arrays, mostly near background
Relative to: not given
Reading: higher = stronger binding
Construct (chain): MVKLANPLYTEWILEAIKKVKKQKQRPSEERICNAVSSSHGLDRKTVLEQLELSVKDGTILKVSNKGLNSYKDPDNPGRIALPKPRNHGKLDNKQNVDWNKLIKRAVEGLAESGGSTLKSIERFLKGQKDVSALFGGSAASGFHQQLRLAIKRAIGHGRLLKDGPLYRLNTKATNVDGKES
Strand	E-score
GTCACTAA	-0.242
CCTCTCCC	-0.174
GACAAATA	-0.114
ATAGACTA	-0.232
ATGTGGTG	-0.0858
CCGACTTC	0.0801
AATGTCGA	-0.18
CGCGCACG	0.374
CGTTGGTA	0.133
GGCATTTA	-0.0537
TAGGCACA	-0.0848
GAGCACCC	0.0885
GGAGGTAA	-0.247
AGTAGGGC	-0.0755
AGGATCGG	-0.0494
GTTCTTGA	-0.097
ATATAGAC	0.0345
AGCACGCC	0.0602
AAATTACC	0.00303
ACCAGCGA	-0.0155
CTGGACTA	-0.204
AGCGAGCC	0.0398
ATCTGCAG	-0.0953

Study 2
Target: RING finger protein unkempt homolog, zinc fingers 1-6, GST-SBP tag (UNK, Homo sapiens, UniProt Q9C0B0, residues 30-357)
Chain of UniProt Q9C0B0 (30-357, looked up): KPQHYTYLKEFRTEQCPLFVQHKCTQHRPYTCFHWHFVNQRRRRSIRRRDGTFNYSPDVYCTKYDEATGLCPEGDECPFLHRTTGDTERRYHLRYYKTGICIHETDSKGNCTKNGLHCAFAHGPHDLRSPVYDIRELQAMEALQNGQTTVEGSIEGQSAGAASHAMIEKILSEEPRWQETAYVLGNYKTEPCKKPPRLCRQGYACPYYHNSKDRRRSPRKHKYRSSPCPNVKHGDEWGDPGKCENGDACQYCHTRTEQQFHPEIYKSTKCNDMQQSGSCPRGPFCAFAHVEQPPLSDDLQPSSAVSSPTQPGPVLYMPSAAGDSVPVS
Method: RNA Bind-n-Seq
Molecule type: RNA
Medium: in vitro
Concentration: not given
Setting: RNA with constant flanks, ends assumed
Relative to: input RNA pool
Reading: higher = stronger binding
All sequences stand within: GGGAGUUCUACAGUCCGACGAUC … CAACAGAGGAUUGAGCAUCA
Strand	bound/input enrichment
GAAGUCGUUUCUCCCCAACUCCCAACUCCUGAAGGUUGCUGCCUGCAUAUUUACUCUUCAUCCGUGCUAUUUUCCUGUAUGUCAUUGUGAGCAAGCUGUGAUUAAUAAAGAAUUGGAGUU	0.254 ratio
UCUGCCACCCAGCAGAAGAAAAACACCAAACUCUCUAGCAAAACCACUGCUAAGUUAUCCACCCGUGCUAAAAGAAUUCAGAAGGAGCUAGCUGAAAUAACCCUUGAUCCUCCUCCUAAU	0.546 ratio
UAUUAGUGUUGUACCAGCCUAUUAACCUCUUGUCUGUGCACAGCUUCAAAUGUUACCGUCCCGUCCGAUUUUUAUUUAAAAUAUGAAAAACUGCUUUUCCCAAGAUGUUUUUUAAAAACA	0.653 ratio
CGACUCGGGGACGGCCUGGGUGCUGCCCUGGGCCCGGGGAACAGAACACACAUCUGGCUUUUUGUCCGAGGUCUUCAUGGAAAGAGUGGUACAUGGUGGGAUGAGCAUCUUUCUGAAGAA	0.189 ratio
UGCACAGGCCUCACAGUGCGUCUGGCCGGCGCUUUAUAGCUGCAGCCUGGGCGGCUCCGCCCGCUGUUUUUCGUCUUCCCUAGGCUAUUUCUGCCGGGCGCUCCGCGAAGAUGCAGCUCA	0.124 ratio
AGUCCACUGAUGCAGUGCUCAUUUUACAAUAGAUCAUCUCCUGUACACAUCAUAGCCACCCGCAAAAGUUUACAUUCCUAUGCACGCCCUCCACCAGUGUCCUCUUCUUCGAAGAGUGAA	0.405 ratio
GAUGUAAGUCAAAGACUUGUUACAUAGAGGGAAAAUGGACUGGGAUAGAGGACAGACUGACCGUUUCUUUCUUUCAUAUCACAUGUAUAGAGAAAUAAUUAUAUCAGAAACUCACAAACC	0.244 ratio
UAGUGUUUGCUUUGUGAACAUGUGUAUUGUAUAUAUUCUGUAUAGUUAUAUUGUACUGAAAUCCGCUUGUUUGAUAUAAGGAAAAUAUGUAUUGAGUACCUUUUUGCUAGCCUGAUUGUU	3.68 ratio
AAGAUCCUCUCGGUAAAUGGCCAAGAUCUGAAGAACCUGCUGCACCAAGAUGCUGCCGACCUCUUCCGUAAUGCGGGAUGUGCUGUGUCCCUGAGAGUACAGCACAGGUUGCUGGUUGUU	0.135 ratio
AGGGCCGCUCCUUCACGCCGGAGACAGGCGGGCCGCCGGUUGCGCUACCUGCCUACUGGCCGCUUUCCCUUCCUCCUCUUGCUGCUGCUGCUCUGCAUCCAGCUCGGGGGCGGACAGAAG	0.119 ratio
AUAUAGACCUAUGAUGUACAGGUACAACAUGUAUAGGUUACGUAGAUAUUAUGAGAAAUUUCCGUUUAUUGUGAGUACUCCAGUUGCUUUAAAAACCACCAGGGUGAUUUGCUGCUGGCU	2.39 ratio

Study 3
Target: RNA binding protein fox-1 homolog 2, RRM domain, GST-SBP tag (RBFOX2, Homo sapiens, UniProt O43251-10, residues 100-194)
Method: RNA Bind-n-Seq
Molecule type: RNA
Medium: in vitro
Concentration: 365 nM
Setting: natural RNA segment, single round, ends assumed
Relative to: no-protein control
Reading: higher = stronger binding
All sequences stand within: GGGAGUUCUACAGUCCGACGAUC … UGGAAUUCUCGGGUGCCAA
Construct (chain): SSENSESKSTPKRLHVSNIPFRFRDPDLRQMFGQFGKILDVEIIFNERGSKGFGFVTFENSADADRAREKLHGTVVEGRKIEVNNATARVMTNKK
Strand	RBNS enrichment (R)
ACCUUCCUACUAUCCUUGUCUUAUUCAUCAAGCAGAUAUUUUAGUCAAGAAUUCCAGAGAAGGCUGCUCCUAAAAUGUCUACUUGCAGCCCAAUACCAGAGCAUAAACUA	0.313
AAUAAAAUGAAAACGUAUUUAUACUGUUUUUACUAAGGUAACAAAAGCAUGAUAAUCCUUUUUUUUGCAAGUGUAAACGACAGUCUGGACUCUUAACUUCUUAGUGCCUC	3.48
CCUCCAAAAGACUCCUUGCAUUAGGUGAUCCAGGAGCCCUGUCACUAAGCCCCUGCCCCUGAGCUCCAGAGCUGUGUGUUUGGGCAAGGAUGGGCGGGGAUUGGCCGGGG	0.361
AACAGAAUAUGCAUUAUUAAAGCAAAAAUAAAUAAAAGUAAAAUGCAAAUGAAAACAAGGGAGGGAAAGUUGUAUUAUUUCCUGCACUGGGUUACCCGUGUGUGUUAUCG	0.556
CAAUGCCUGGACCUGUCCACCUGAGAGGCCCCUGGGGCCUCCCCAGCUGCUGGCCAGACCCUGGCGCUGCCACAGUCCUGGCACUGCCCAAGGCCAUACCUGCCUAGCCC	0.192
UUUAUUCAGUAUUUCUCCAAGUUGCUAUCUACUCAGCCUUAUGAAUGCCCCUCGCUUUUCUAAGGCCAUGUGAAAAUCACGGCACUGCCCUUAGCCUUGUGUCAUCUGCU	0.467
GGACAACACGAAGAUUUCCUUUGCAUUUUCAGUAACCUUUGGAGCACACUUCUCUUAUUUCUCCUAGAGCCCCGUGCCCCUCUGAAGUGUUACCACAAUCUAGCUUACCU	0.33
AUUAUAAACAAUAUAUUCAAAAUGGGCAAAUUUUAUUUUCAAAUGCAGUGUAGAGCUAGAUUAAAAGCAACUCUUUGCCACCUACUCUGCCCUUUUGGCAAAGUUACCUU	0.537
GUGAGGAUAAGGGGUGGGGGAGAAAAAAUCACUGUUUGUUUUUAAAAAGCAAAUCUUUCUGUAAACAGAAUAAAAGUUCCUCUCCCUUCCCUUCCCUCACCCCUGACAUG	0.464
CUAGACGGGGCGGUCGGGUGCCUGCGGCCUCGCCCGCACGCCUAGAGUCUCGCCCGAUCCCAUCGGCAUCCCGGGGAGGGCCCGGGAGCCUCCGUCAACCGUCCUCUAAU	0.264
UUAACAGUGGCAUAUUUAGGCAUGGAAAUAUUAUUAUGAAAUUUAUUUUCAGGAUCUGCUAUAAGGUUGAAAUUUAGCCCAGCUCUAGGCAUUUUACAAAUUAUUUUUCA	1.19
GUAGAAAGUCUCCCUGGAAGCUGACCCACAAAGCCCUGUGACCUGGCCCCUCCUCUGAAGGCCAGCAAGAGGUGGAGCAAGGAUCAACUGCUGUUCUGGAGUAGGGUUCC	0.277

Study 4
Target: Interferon regulatory factor 7, full length, phosphomimetic (IRF7, Homo sapiens, UniProt Q92985, residues 1-503, S471D/S472D/S475D/S476D/S477D/S483D/S484D/S487D)
Chain of UniProt Q92985 (whole entry, unmodified, looked up): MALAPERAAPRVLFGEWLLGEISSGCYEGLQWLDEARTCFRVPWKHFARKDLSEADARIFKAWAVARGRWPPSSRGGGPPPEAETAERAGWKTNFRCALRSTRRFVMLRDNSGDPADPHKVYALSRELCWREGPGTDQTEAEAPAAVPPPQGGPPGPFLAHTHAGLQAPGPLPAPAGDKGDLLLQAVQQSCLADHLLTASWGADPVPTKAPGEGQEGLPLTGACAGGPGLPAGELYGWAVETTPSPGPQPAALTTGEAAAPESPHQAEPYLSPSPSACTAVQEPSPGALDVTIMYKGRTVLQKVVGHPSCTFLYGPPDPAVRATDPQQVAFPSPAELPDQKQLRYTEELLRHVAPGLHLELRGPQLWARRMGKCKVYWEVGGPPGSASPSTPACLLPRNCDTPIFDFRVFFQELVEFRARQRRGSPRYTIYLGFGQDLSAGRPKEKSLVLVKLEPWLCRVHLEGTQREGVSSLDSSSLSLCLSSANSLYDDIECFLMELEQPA
Method: protein-binding microarray
Molecule type: double-stranded DNA, one strand shown
Medium: in vitro
Concentration: 2200 nM top
Setting: 60-bp whole probe
Together with: salmon DNA 0.4 mg/ml
Relative to: random background probes
Reading: higher = stronger binding
All sequences stand within: GCCTAGCAC … GTCTTGATTCGCTTGACGCTGCTG
Strand	fitted relative affinity [z-score]
GACGATTTCAATTTCGAGACGTGCTAG	2.4
CCTTATTTAAGACCTATGCACGTGCTA	0.485
TTAGAACCGGGGACTGGATTAGTGCTA	-0.679
TTAGATATCAGTATCGATTTGTGCTAG	1.07
GACGATTTCCGACTGGAGACGTGCTAG	0.945
GACTAACTGGGGTTTCGAGACGTGCTA	1.33
TCACTTTTGCTTTACTGACTGTGCTAG	7.23
TTAGGTATCCTTATCCTGTAGTGCTAG	0.73
GACGGTTCCGGTTTCGGAACGTGCTAG	6.03
GACGGTTTACTTATCCTGACGTGCTAG	1.54
TTAGATCTCAGTATCGCTTAGTGCTAG	0.235
GACGGCCTGGGTATCGGGACGTGCTAG	-1.21
TTAGATTTCTGGTATCGATTAGTGCTA	1.01
TCATCATTATTGTCTCCCACTGTGCTA	1.45
TTAGAACTGGTGTATCGATTAGTGCTA	-0.0163
TTAGGCCTCCTTATCCTTTAGTGCTAG	0.858
TTAGGTCTCCTCCTCCTTTAGTGCTAG	0.72
GACTGTCTCGGTATCGGGACGTGCTAG	0.228
TACGGTATCCTACTGCTGACGTGCTAG	1.03
GACGATTTCTGGACTGGAGACGTGCTA	0.661

Repeated from above (study 3):
Strand	RBNS enrichment (R)
ACCUUCCUACUAUCCUUGUCUUAUUCAUCAAGCAGAUAUUUUAGUCAAGAAUUCCAGAGAAGGCUGCUCCUAAAAUGUCUACUUGCAGCCCAAUACCAGAGCAUAAACUA	0.313
AAUAAAAUGAAAACGUAUUUAUACUGUUUUUACUAAGGUAACAAAAGCAUGAUAAUCCUUUUUUUUGCAAGUGUAAACGACAGUCUGGACUCUUAACUUCUUAGUGCCUC	3.48
CCUCCAAAAGACUCCUUGCAUUAGGUGAUCCAGGAGCCCUGUCACUAAGCCCCUGCCCCUGAGCUCCAGAGCUGUGUGUUUGGGCAAGGAUGGGCGGGGAUUGGCCGGGG	0.361
AACAGAAUAUGCAUUAUUAAAGCAAAAAUAAAUAAAAGUAAAAUGCAAAUGAAAACAAGGGAGGGAAAGUUGUAUUAUUUCCUGCACUGGGUUACCCGUGUGUGUUAUCG	0.556
